Experimental data gathered from unrelated publications.
Parts stem from different laboratories: compare values within a part only. Substitutions count along the parent as printed.
Sequence of UniProt O23661 (whole entry, looked up): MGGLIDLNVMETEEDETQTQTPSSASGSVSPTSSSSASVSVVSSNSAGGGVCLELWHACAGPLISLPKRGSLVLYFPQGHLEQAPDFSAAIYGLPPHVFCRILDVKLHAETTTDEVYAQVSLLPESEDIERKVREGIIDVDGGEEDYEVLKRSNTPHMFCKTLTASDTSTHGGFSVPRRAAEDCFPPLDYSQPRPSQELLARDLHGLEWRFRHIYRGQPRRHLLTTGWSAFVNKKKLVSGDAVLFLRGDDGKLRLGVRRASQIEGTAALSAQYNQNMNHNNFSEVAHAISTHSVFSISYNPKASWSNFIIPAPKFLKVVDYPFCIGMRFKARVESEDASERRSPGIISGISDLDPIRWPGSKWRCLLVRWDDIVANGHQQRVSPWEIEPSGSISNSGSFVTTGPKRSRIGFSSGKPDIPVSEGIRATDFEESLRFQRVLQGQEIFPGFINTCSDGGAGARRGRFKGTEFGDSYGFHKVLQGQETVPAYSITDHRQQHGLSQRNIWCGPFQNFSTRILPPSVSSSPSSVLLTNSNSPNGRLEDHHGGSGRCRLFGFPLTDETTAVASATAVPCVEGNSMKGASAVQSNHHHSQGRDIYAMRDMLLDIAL
Sequence of UniProt Q9FGV1 (whole entry, looked up): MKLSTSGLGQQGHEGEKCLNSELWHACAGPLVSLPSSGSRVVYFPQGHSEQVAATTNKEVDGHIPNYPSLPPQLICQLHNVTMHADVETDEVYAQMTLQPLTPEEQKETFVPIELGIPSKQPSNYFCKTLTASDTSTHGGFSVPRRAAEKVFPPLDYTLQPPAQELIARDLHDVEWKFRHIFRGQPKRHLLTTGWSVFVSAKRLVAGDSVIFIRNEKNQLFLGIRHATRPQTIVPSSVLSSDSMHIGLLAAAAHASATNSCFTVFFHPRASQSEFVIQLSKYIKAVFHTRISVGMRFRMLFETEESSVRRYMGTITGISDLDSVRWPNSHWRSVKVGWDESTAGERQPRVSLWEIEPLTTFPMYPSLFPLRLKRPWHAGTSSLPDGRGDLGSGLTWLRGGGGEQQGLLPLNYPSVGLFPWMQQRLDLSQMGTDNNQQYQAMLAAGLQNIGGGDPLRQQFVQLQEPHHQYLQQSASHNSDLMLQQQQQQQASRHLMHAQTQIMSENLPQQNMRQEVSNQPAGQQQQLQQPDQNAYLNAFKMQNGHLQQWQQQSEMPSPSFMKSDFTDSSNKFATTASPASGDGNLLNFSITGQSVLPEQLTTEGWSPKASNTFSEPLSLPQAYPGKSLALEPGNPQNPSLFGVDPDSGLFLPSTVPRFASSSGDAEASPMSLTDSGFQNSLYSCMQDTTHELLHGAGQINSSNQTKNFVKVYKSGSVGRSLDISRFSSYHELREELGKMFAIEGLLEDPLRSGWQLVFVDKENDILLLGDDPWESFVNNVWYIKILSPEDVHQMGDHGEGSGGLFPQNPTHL
Sequence of UniProt Q9C966 (whole entry, looked up): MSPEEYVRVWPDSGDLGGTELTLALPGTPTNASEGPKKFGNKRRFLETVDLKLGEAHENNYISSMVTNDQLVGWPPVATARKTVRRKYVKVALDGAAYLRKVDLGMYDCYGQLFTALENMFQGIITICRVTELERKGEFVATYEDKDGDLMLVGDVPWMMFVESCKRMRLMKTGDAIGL
Sequence of UniProt Q8LAL2 (whole entry, looked up): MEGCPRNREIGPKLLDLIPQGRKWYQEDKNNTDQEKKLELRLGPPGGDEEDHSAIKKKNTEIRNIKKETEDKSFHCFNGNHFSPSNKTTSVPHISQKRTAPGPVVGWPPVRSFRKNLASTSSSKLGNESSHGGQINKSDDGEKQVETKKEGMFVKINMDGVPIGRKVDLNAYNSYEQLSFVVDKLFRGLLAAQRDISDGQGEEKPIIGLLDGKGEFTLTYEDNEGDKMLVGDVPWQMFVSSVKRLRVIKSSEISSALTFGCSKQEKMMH
Sequence of UniProt Q9FKM7 (whole entry, looked up): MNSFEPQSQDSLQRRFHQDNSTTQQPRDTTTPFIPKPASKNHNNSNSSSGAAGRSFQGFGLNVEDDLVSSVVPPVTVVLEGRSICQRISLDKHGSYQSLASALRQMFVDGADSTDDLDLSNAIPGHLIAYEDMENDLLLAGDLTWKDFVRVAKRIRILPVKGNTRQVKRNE
Sequence of UniProt O24410 (whole entry, looked up): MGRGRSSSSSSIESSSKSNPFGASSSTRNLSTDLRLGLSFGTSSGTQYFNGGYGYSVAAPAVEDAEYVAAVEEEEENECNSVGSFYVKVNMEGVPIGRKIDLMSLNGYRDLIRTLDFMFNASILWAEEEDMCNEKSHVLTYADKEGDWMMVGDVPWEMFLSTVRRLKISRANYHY
Sequence of UniProt P93024 (whole entry, looked up): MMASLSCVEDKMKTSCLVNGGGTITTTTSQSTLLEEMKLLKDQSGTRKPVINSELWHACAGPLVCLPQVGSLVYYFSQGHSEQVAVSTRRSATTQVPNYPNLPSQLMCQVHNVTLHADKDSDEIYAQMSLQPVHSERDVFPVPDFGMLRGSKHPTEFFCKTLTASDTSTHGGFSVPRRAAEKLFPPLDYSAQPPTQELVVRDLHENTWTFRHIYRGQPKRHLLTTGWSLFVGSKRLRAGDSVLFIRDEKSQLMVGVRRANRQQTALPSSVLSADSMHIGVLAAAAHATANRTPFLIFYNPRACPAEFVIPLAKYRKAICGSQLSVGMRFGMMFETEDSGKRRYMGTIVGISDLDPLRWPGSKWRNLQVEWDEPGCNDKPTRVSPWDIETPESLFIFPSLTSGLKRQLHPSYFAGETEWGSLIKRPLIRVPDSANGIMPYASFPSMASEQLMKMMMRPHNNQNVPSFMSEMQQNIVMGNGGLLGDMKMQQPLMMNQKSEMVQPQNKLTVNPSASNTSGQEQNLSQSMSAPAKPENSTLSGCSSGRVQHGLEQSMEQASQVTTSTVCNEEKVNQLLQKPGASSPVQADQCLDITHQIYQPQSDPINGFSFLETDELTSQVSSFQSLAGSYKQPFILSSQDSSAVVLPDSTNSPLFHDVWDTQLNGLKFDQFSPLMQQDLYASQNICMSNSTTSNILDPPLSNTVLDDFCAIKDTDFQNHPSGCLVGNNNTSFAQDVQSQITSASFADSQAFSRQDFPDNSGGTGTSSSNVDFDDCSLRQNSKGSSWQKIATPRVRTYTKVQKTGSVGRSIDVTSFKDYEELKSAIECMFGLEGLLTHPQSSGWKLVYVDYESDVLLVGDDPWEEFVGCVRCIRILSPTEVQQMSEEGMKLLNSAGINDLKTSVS

Sample 1 — Molecule: B1 (IAA13); method: two-hybrid; reading: higher = firmer interaction; measurement: positive tests
B1: IAA13 (Arabidopsis thaliana, UniProt Q38831); chain MITELEMGKGESELELGLGLSLGGGTAAKIGKSGGGGAWGERGRLLTAKDFPSVGSKRAADSASHAGSSPPRSSSQVVGWPPIGSHRMNSLVNNQATKSAREEEEAGKKKVKDDEPKDVTKKVNGKVQVGFIKVNMDGVAIGRKVDLNAHSSYENLAQTLEDMFFRTNPGTVGLTSQFTKPLRLLDGSSEFVLTYEDKEGDWMLVGDVPWRMFINSVKRLRVMKTSEANGLAARNQEPNERQRKQPV
IAA15 (Arabidopsis thaliana, UniProt Q9C966); baseline: out of 4 tests: 4
IAA20 (Arabidopsis thaliana, UniProt O24410); weak activation fusion; baseline: out of 4 tests: 2
ETT (Arabidopsis thaliana, UniProt O23661); baseline: out of 2 tests: 0
ARF8 699-811 (Arabidopsis thaliana, UniProt Q9FGV1); baseline: out of 4 tests: 4
IAA26 (Arabidopsis thaliana, UniProt Q8LAL2); baseline: out of 2 tests: 0
IAA33 (Arabidopsis thaliana, UniProt Q9FKM7); baseline: out of 2 tests: 0
ARF5 788-902 (Arabidopsis thaliana, UniProt P93024); baseline: out of 4 tests: 4

Sample 2 — method: RNA Bind-n-Seq; molecule type: RNA; medium: in vitro; concentration: not given; notes: 4-mer, random 30-nt RNA, single round; with: RocA, ADP, phosphate; baseline: input library; reading: higher = stronger binding; measurement: 4-mer enrichment
Target: Eukaryotic initiation factor 4A-I (EIF4A1, Homo sapiens, UniProt P60842, residues 1-406, full length assumed)
Sequence of UniProt P60842 (whole entry, looked up): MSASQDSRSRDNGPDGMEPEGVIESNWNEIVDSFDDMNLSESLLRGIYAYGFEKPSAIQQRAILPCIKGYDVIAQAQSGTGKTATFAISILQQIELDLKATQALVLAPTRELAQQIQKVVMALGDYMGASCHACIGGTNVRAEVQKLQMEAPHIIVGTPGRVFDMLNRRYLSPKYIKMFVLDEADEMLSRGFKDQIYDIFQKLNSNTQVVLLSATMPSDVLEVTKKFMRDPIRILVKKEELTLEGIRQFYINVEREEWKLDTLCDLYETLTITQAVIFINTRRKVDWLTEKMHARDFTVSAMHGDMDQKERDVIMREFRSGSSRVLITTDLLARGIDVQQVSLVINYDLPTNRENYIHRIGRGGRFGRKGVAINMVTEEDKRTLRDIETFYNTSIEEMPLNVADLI
GCCA: 0.691 fold
UCAC: 0.566 fold
UGCA: 0.759 fold
AAAC: 0.834 fold
GUAG: 1.19 fold
CGAU: 0.737 fold
UGUA: 0.947 fold
UGAA: 1.32 fold

Single results of other studies
P1: viral docking peptide; PGASRRLFGSSAD; partner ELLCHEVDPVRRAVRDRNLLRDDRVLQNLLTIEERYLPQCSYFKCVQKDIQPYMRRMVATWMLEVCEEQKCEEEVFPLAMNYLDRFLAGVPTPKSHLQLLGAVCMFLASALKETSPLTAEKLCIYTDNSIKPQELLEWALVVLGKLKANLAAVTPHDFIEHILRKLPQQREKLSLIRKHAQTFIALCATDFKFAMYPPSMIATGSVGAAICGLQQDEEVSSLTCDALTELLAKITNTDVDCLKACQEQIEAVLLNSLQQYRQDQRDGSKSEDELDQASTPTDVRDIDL
TMED2 (Homo sapiens, UniProt Q15363)
interaction screen (TMED4 (Homo sapiens, UniProt Q7Z7H5); cross-linking MS; hits only): cross-linked

P1 S10A
normalised enrichment score (CCND2, cyclin fold, Cln2 fusion (human); yeast growth competition, sequencing; yeast; weak parent motif; baseline: not given, higher = stronger binding): -0.162

H2AZ1 (Homo sapiens, UniProt P0C0S5)
interaction screen (AKAP11 (Homo sapiens, UniProt Q9UKA4); cross-linking MS; hits only): cross-linked

UTP25 (Homo sapiens, UniProt Q68CQ4)
cross-linked residues (HEATR1 (Homo sapiens, UniProt Q9H583); cross-linking MS; cell fractions; with: DSSO): K756 to K1827

ADAR (Homo sapiens, UniProt P55265)
cross-linked residues (CLTC (Homo sapiens, UniProt Q00610); cross-linking MS; cell fractions; with: DMTMM): K1120 to E1187

For quick reference, copied from above (single results of other studies):
ADAR (Homo sapiens, UniProt P55265)
cross-linked residues (CLTC (Homo sapiens, UniProt Q00610); cross-linking MS; cell fractions; with: DMTMM): K1120 to E1187

UTP25 (Homo sapiens, UniProt Q68CQ4)
cross-linked residues (HEATR1 (Homo sapiens, UniProt Q9H583); cross-linking MS; cell fractions; with: DSSO): K756 to K1827
